Published values pooled from the literature.
Each line is one published result; not all experiments were run side by side. Numbers after ± are the reported error.
Technique: steady-state kinetics
B1: enzyme (Salmonella enterica, UniProt P31570); chain MSDERYQQRQQKVKDRVDARVAQAQEERGIIIVFTGNGKGKTTAAFGTAARAVGHGKNVGVVQFIKGTWPNGERNLLEPHGVEFQVMATGFTWETQNREADTAACMAVWQHGKRMLADPLLDMVVLDELTYMVAYDYLPLEEVISALNARPGHQTVIITGRGCHRDILDLADTVSELRPVKHAFDAGVKAQMGIDY
B2: protein (Cecembia lonarensis, UniProt K1KV82); chain QENKEKDRTPSSKHLTDNILQPKRSSDFMAFKYEYSTVDLYREFSESIMDKARSEVEILESVNRQGRYKPNVESLKLHEVPEWFEDAKLGIFLDWGPWSVPGYAPLKGAEASTGGSYPDWYEFLMDNLYKEYHDEVWGADFRRDDFLPLLTGENFNSEEYMLLAVNSGAKYFVPFTKHHAGWTMWESEFTKRNAVEMGPGRDIYKELIEAGKKYDMKMGFYFSVSEWEYPVIVDQNLSQWDPVKNLAIFQDALGQIPRATPLASYFPALHDRMISGKIPVKDYFADYMIPSFKEAVDKYDPDLVWYDGGWGSPVSISRTMETSAYFYNQAEGKKDVVINNRAGSSLSEDDLIKVRDLMDSGKRDEAMKIYLSGQQLGDYGTPEFTIGDVDIQSKWEVCRSISPAFGYNWQDDEASSLSGEELIKLFVDIVANNGNLLLVISPDGSGKLPDIQKDRLLELGDWMKVNAESIHNTRPWKVQKENDKFFTKSKDGKSLFVHCTNWPGENLIINTPIEEGIKGIKLLGSDINLQFTKASNGNLEIPIPKDFQNNPSLISKYVWTFKIDLN
B3: MCAT R178A (Homo sapiens, UniProt Q8IVS2); chain GQGSQVVGMGRGLLNYPRVRELYAAARRVLGYDLLELSLHGPQETLDRTVHCQPAIFVASLAAVEKLHHLQPSVIENCVAAAGFSVGEFAALVFAGAMEFAEGLYAVKIAAEAMQEASEAVPSGMLSVLGQPQSKFNFACLEAREHCKSLGIENPVCEVSNYLFPDCRVISGHQEALRFLQKNSSKFHFRRTRMLPVSGAFHTRLMEPAVEPLTQALKAVDIKKPLVSVYSNVHAHRYRHPGHIHKLLAQQLVSPVKWEQTMHAIYERKKGRGFPQTFEVGPGRQLGAILKSCNMQAWKSYSAVDVL
B4: Alanine racemase (Geobacillus stearothermophilus, UniProt P10724); chain MNDFHRDTWAEVDLDAIYDNVENLRRLLPDDTHIMAVVKANAYGHGDVQVARTALEAGASRLAVAFLDEALALREKGIEAPILVLGASRPADAALAAQQRIALTVFRSDWLEEASALYSGPFPIHFHLKMDTGMGRLGVKDEEETKRIVALIERHPHFVLEGLYTHFATADEVNTDYFSYQYTRFLHMLEWLPSRPPLVHCANSAASLRFPDRTFNMVRFGIAMYGLAPSPGIKPLLPYPLKEAFSLHSRLVHVKKLQPGEKVSYGATYTAQTEEWIGTIPIGYADGWLRRLQHFHVLVDGQKAPIVGRICMDQCMIRLPGPLPVGTKVTLIGRQGDEVISIDDVARHLETINYEVPCTISYRVPRIFFRHKRIMEVRNAIGRGESSA
B5: Saccharopine reductase (Saccharomyces cerevisiae, UniProt P38999); chain MGKNVLLLGSGFVAQPVIDTLAANDDINVTVACRTLANAQALAKPSGSKAISLDVTDDSALDKVLADNDVVISLIPYTFHPNVVKSAIRTKTDVVTSSYISPALRELEPEIVKAGITVMNEIGLDPGIDHLYAVKTIDEVHRAGGKLKSFLSYCGGLPAPEDSDNPLGYKFSWSSRGVLLALRNSAKYWKDGKIETVSSEDLMATAKPYFIYPGYAFVCYPNRDSTLFKDLYHIPEAETVIRGTLRYQGFPEFVKALVDMGMLKDDANEIFSKPIAWNEALKQYLGAKSTSKEDLIASIDSKATWKDDEDRERILSGFAWLGLFSDAKITPRGNALDTLCARLEELMQYEDNERDMVVLQHKFGIEWADGTTETRTSTLVDYGKVGGYSSMAATVGYPVAIATKFVLDGTIKGPGLLAPYSPEINDPIMKELKDKYGIYLKEKTVA
B6: putA N1014A (Rhodobacter capsulatus, UniProt D5AN87); chain MTDLSALGPKAKFAPEAEVLQALVAQAALPQPQLDRIAARGADLVARIRAEAKPSLMEHFLAQYGLSTREGVALMCLAEAMLRVPDTATIDALIEDKIAPSDWGKHLGTAASSLVNASTWALMLTGKVLDDGAGGIAGTLRGAMRRLGEPVIRAAVGQAMREMGRQFVLGETIEKALERAEKREAEGYTFSYDMLGEAALTAADAERYRLAYAQAITAIGKAATRGSIAANPGISIKLSALHPRYEVAQEARVMAELVPVVRDLARAAARAGIALHIDAEEQDRLALSLRVMAAVIADPETAGWEGFGAVVQAYGKRAGAAIDALAAMARAAGRRINIRLVKGAYWDAEMKRAQVEGHPGFPLFTSKTGTDVAYICLAAKLFGLNDCIYPQFATHNAHTVAAVLEMAAGRPFEFQRLHGMGARLHDIVLRETGGRCRIYAPVGAHRDLLAYLVRRLLENGANSSFVNQIVNESVPPAEVAACPFAALPTARAPRGLLAPADLFGAGRVNAQGFDLSDPEVLARIEAARDVTLPDAAPIVAGPVSGTLRPVRNPATGAVVAQVTEADAATVALALDAAQVWSAPAATRAAVLCRAADLYEENFGPIFAALAQEAGKTLGDAVSELREAVDFLRYYAAEGAADTRPPRGAVVAISPWNFPLAIFTGQVAAALMAGNAVLAKPAEQTPIIAALAVRLLHQAGVPETALQLLPGDGPTVGAALTRDPRVAGVVFTGSTETAQIIARAMAAHLAPGTPLIAETGGLNAMVVDSTALPEQAVRDVVASAFRSAGQRCSALRCLYVQDDIAPHLIGMLKGAMEELVSGDPARLSTDVGPVIDAEAKAGIETYLAANKARILHRSTAPEGGHFVAPALLQVGGIADLEREIFGPVLHLATFAAEDLPAVIAAINARGYGLTFGLHSRIDARVETVAETIRAGNIYVNRNQIGAVVGSQPFGGEGLSGTGPKAGGPLYLNRFYAPEPVVAVGGWTEAATPILPEARETQLDEIFLPGPTGELARLTRHQRGPILCLGPGAEAASAQAAAVVALGGQAVQASGAVSPKALETLTPLAGVLWWGAAEMGRAYAQALAVRPGPLVPLITAKPDLAHVAHERHLCVDTTAAGGNAALLAG
B7: sacB S173T (Priestia megaterium, UniProt D5DC07); chain KGNDSKDFNNSYGISHITRDNMVKIPQQQNSDQFKVPAFDESTIKNIASAKGKNASGNTIDLDVWDSWPLQNADGTVATYHGYQIVFALAGDPKDSNDTSVYLFYKKAGDKSIDSWKNAGRVFKDSDKFVPNDPHLKNQTQEWTGSGTLTKDGKVRLFYTDYSGKQYGKQTLTTAQVNMSQPNDNTLKVDGVEDYKSIFDGDGKIYQTVQQFIDEGGYDTGDNHTLRDPHYIEDNGHKYLVFEANTGTEDGYQGEDSLYNRAYYGGNNPFFQSEKKKLLEGSNKEKASLANGALGIIELNDDYTLKKVMKPLITSNTVTDEIERANIFKKDGKWYLFTDSRGSKMTIDGIGQDDVYMLGYVSNTLTGKYKPLNDTGLVLHMDLDPNDKTFTYSHFAVPQTKGDNVVITSYMTNRGFYEDNHSTFAPSFLVNIDGSKTSVVKDRVLEQGQLTVDED
B8: SULT1A1 I89A (Homo sapiens, UniProt P50225); chain MELIQDTSRPPLEYVKGVPLIKYFAEALGPLQSFQARPDDLLISTYPKSGTTWVSQILDMIYQGGDLEKCHRAPIFMRVPFLEFKAPGAPSGMETLKDTPAPRLLKTHLPLALLPQTLLDQKVKVVYVARNAKDVAVSYYHFYHMAKVHPEPGTWDSFLEKFMVGEVSYGSWYQHVQEWWELSRTHPVLYLFYEDMKENPKREIQKILEFVGRSLPEETVDFVVQHTSFKEMKKNPMTNYTTVPQEFMDHSISPFMRKGMAGDWKTTFTVAQNERFDADYAEKMAGCSLSFRSEL
B9: enzyme (Levilactobacillus brevis, UniProt Q03Q85); chain MKVTVVGCTHAGTFAIKQILAEHPDAEVTVYERNDVISFLSCGIALYLGGKVADPQGLFYSSPEELQKLGANVQMNHNVLAIDPDQKTVTVEDLTNHAQTTESYDKLVMTSGSWPIVPKIPGIDSDRVKLCKNWAHAQALIEDAKEAKRITVIGAGYIGAELAEAYSTTGHDVTLIDAMARVMPKYFDADFTDVIEQDYRDHGVQLALGETVESFTDSATGLTIKTDKNSYETDLAILCIGFRPNTDLLKGKVDMAPNGAIITDDYMRSSNPDIFAAGDSAAVHYNPTHQNAYIPLATNAVRQGILVGKNLVKPTVKYMGTQSSSGLALYDRTIVSTGLTLAAAKQQGLNAEQVIVEDNYRPEFMPSTEPVLMSLVFDPDTHRILGGALMSKYDVSQSANTLSVCIQNENTIDDLAMVDMLFQPNFDRPFNYLNILAQAAQAKVAQSVNA
UniProt P07914, sequence (whole entry, looked up): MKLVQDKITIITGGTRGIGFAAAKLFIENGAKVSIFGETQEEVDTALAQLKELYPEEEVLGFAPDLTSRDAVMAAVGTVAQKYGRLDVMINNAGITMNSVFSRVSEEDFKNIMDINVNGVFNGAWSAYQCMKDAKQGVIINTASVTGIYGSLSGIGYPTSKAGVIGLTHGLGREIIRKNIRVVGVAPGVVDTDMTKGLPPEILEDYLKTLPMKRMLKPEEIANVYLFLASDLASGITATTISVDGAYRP
UniProt P0AFG3, sequence (whole entry, looked up): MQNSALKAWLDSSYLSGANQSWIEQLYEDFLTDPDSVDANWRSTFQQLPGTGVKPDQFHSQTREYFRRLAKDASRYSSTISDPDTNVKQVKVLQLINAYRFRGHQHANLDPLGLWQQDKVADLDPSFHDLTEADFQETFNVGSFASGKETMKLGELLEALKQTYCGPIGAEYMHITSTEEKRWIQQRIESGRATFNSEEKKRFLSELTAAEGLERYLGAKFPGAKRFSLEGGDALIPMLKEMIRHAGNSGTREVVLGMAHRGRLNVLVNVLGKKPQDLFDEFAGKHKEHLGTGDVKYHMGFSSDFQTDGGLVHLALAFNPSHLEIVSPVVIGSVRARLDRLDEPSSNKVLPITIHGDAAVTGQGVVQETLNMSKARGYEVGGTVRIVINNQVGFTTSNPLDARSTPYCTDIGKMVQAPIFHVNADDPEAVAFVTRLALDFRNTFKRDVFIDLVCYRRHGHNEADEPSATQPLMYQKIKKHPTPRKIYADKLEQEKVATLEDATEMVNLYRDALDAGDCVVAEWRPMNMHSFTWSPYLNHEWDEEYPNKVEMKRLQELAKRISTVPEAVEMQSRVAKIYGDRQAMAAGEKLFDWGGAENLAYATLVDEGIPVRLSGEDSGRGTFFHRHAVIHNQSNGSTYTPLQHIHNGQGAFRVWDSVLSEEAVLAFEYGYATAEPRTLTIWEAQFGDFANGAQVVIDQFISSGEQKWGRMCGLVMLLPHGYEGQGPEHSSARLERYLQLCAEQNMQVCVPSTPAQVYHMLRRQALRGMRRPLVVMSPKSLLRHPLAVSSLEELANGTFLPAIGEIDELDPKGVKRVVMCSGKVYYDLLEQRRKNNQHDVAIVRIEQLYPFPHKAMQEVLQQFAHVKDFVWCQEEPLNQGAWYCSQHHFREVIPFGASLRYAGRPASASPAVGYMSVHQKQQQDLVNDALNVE

| Molecule | substrate | conditions | kcat [s⁻¹] |
| --- | --- | --- | --- |
| dihydrodipicolinate synthase homolog (Oceanobacillus iheyensis, UniProt Q8EMJ7) | O=C(O)C(=O)C[C@@H](O)[C@H](O)C(=O)O | pH 8, together with: MgCl2 5 mM | 0.13 |
| B1 (enzyme) | Nc1ncnc2c1ncn2[C@@H]1O[C@H](COP(=O)(O)OP(=O)(O)OP(=O)(O)O)[C@@H](O)[C@H]1O | pH 8, 37 °C | 0.08 ± 0.01 |
| B2 (protein) | C[C@@H]1O[C@@H](Oc2ccc([N+](=O)[O-])cc2)[C@@H](O)[C@H](O)[C@H]1O | pH 5.5, 35 °C | 4.59 ± 0.37 |
| protein (Zea mays, UniProt A0A2H4PMI3) | O=CCCCC(=O)O | pH 7.5, 30 °C, substrate inhibition, together with: NAD+ 3.0 mM | 1.9 ± 0.2 |
| B3 (MCAT R178A) | CC(=O)SCCNC(=O)CCNC(=O)[C@H](O)C(C)(C)COP(=O)(O)OP(=O)(O)OC[C@H]1O[C@@H](n2cnc3c(N)ncnc32)[C@H](O)[C@@H]1OP(=O)(O)O | pH 6.8, 20 °C, labelled substrate, together with: holo-ACP 20 µM | 0.00483 ± 0.000667 |
| B4 (Alanine racemase) | C[C@H](N)C(=O)O | pH 8.9, 25 °C, L to D direction | 1740 |
| BaiA1 (Clostridium scindens, UniProt P07914) | NC(=O)c1ccc[n+]([C@@H]2O[C@H](COP(=O)(O)OP(=O)(O)OC[C@H]3O[C@@H](n4cnc5c(N)ncnc54)[C@H](OP(=O)(O)O)[C@@H]3O)[C@@H](O)[C@H]2O)c1 | pH 8.7, 37 °C, cofactor varied, together with: glycocholic acid 1.4 mM | 0.113 |
| sucA (Escherichia coli, UniProt P0AFG3) | O=C(O)C(=O)CO | pH 6.8, 37 °C | 0.0139 ± 0.0003 |
| B5 (Saccharopine reductase) | NC(=O)C1=CN([C@@H]2O[C@H](COP(=O)(O)OP(=O)(O)OC[C@H]3O[C@@H](n4cnc5c(N)ncnc54)[C@H](OP(=O)(O)O)[C@@H]3O)[C@@H](O)[C@H]2O)C=CC1 | pH 7, 25 °C, together with: AASA, L-glutamate | 1.9 ± 0.1 |
| B6 (putA N1014A) | O=C(O)[C@@H]1CCCN1 | pH 8, 23 °C | 4.8 ± 0.2 |
| B7 (sacB S173T) | OC[C@H]1O[C@@](CO)(O[C@H]2O[C@H](CO)[C@@H](O)[C@H](O)[C@H]2O)[C@@H](O)[C@@H]1O | pH 6.6 | 108 ± 4.2 |
| B8 (SULT1A1 I89A) | C[C@]12CC[C@@H]3c4ccc(O)cc4CC[C@H]3[C@@H]1CC[C@@H]2O | pH 7.2, 25 °C, together with: PAPS 0.060–1.5 µM | 0.9 |
| B9 (enzyme) | NC(=O)C1=CN([C@@H]2O[C@H](COP(=O)(O)OP(=O)(O)OC[C@H]3O[C@@H](n4cnc5c(N)ncnc54)[C@H](O)[C@@H]3O)[C@@H](O)[C@H]2O)C=CC1 | pH 7.5, 37 °C, per site | 648 ± 28 |

Some of these lines once more:
| Molecule | substrate | conditions | kcat [s⁻¹] |
| --- | --- | --- | --- |
| BaiA1 (Clostridium scindens, UniProt P07914) | NC(=O)c1ccc[n+]([C@@H]2O[C@H](COP(=O)(O)OP(=O)(O)OC[C@H]3O[C@@H](n4cnc5c(N)ncnc54)[C@H](OP(=O)(O)O)[C@@H]3O)[C@@H](O)[C@H]2O)c1 | pH 8.7, 37 °C, cofactor varied, together with: glycocholic acid 1.4 mM | 0.113 |
